Measurements pooled from the literature.
Each line is one published result; not all experiments were run side by side. Values joined by “and” are separate records of one study, mostly repeats; a detail may differ.
Target: Serine/threonine-protein kinase D2 (PRKD2, Homo sapiens, UniProt Q9BZL6)

| Compound | effect on | action | technique | concentration | baseline | quantity | result |
| --- | --- | --- | --- | --- | --- | --- | --- |
| CNC(=O)C[C@H](Cc1ccc(C#N)cc1)NC(=O)c1cc(-c2ccc(CN[C@H](C)c3ccc(C)cc3)o2)ccc1Cl | enzyme activity | inhibitor |  | 1 µM |  | activity vs control | 114% |
| C=CC(=O)N1Cc2nc(-c3cc(-c4cc(Cl)cnc4Cl)c(F)cc3F)n(-c3ccncn3)c2C1 | cell-free assay | inhibitor |  | 1 µM |  | inhibition | 4.3% |
| COc1cc(Nc2nc(C)cc(-c3cnn4nc(OC)ccc34)n2)cc(C(F)(F)F)c1 |  | inhibitor |  | 1 µM | control | remaining activity | 100% |
| Cc1cccc(O[C@H]2CCC[C@@H](C(C)CNCc3ccncc3)C2)c1 (relative stereo) | enzyme activity | inhibitor |  | 1 µM |  | inhibition | 1% |
| CNC(=O)C1CCN(c2cc(C)c(F)cc2NC(=O)c2ccc(-c3cc(O)ccc3C)c(C)c2)CC1 | binding |  | competition with immobilised ligand | 1 µM |  | remaining binding | 100% |
| COc1ccc(O)cc1-c1c[nH]c2ncc(-c3cncc(C(=O)N(C)C)c3)cc12 | binding |  | competition with immobilised ligand | 0.2 µM |  | inhibition | 4.62% |
| Cc1nc2c(F)cc(-c3nc(Nc4ccc(CNC(=O)CCCCCCC(=O)NO)cc4)ncc3F)cc2n1C(C)C | enzyme activity | inhibitor |  | 1 µM |  | inhibition | 87% |
| CNC1C[S+]2CC[S+]3CC[S+](C1)[Ru-4]321([N]=C=S)[n]2c3ccc(OC)cc3c3c4c(c5cc(F)c[n+]1c5c32)C(=O)NC4=O (centres unmarked) |  |  | KinomeScan | 0.1 µM | untreated | remaining binding | 100% |
| CC(C)=CC1OC(C)(C)C2C=C3C(=O)C(Cl)=CC(O)C3C3C(O)C4OC4C(=O)C132 (centres unmarked) | cell-free assay |  | competition with immobilised ligand | 10 µM |  | remaining binding | 92% |
| COc1c(OCCCN2CCOCC2)ccc2c1N=C(NC(=O)c1cnc(N)nc1)N1CCN=C21 | kinase activity | inhibitor |  | 1 µM | untreated control | remaining activity | 101% |
| NC(=O)[C@@H](O)C[C@H]1CCc2sc3ncnc(O[C@H]4CC[C@H](N5CCOCC5)CC4)c3c21 | enzyme activity | inhibitor |  | 10 µM |  | inhibition | 8% |
| C=CC(=O)Nc1cccc(-c2cnc3[nH]cc(C(=O)NC(C)(C)C)c3n2)c1 | kinase activity |  |  | 0.1 µM |  | inhibition | 7% and 3% |
| CN1CCN(Cc2ccc(-c3ccc(CO[C@H]4CCC[C@@H]4NC(=O)c4cc(-c5cnn(C)c5)cnc4N)cc3)cc2)CC1 | enzyme activity | inhibitor |  | 0.1 µM |  | inhibition | 8% |
| CCN1CCN(Cc2ccc(C(=O)Nc3ccc(C)c(NCc4cnc5[nH]ccc5c4OC)c3)cc2C(F)(F)F)CC1 | binding |  | competition with immobilised ligand | 1 µM |  | remaining binding | 43% |
| C=CC(=O)N1CCc2ccc(-n3c(=O)ccc4cnc5ccc(-c6cnn(C)c6)cc5c43)cc21 |  |  | KINOMEscan | 1 µM | DMSO control | remaining binding | 99% |
| C=CC(=O)N1CCCC(n2c(=O)c3ncccc3n(Cc3ccc(Oc4ccccc4)cc3)c2=O)C1 (centres unmarked) | cell-free assay |  | competition with immobilised ligand | 1 µM |  | remaining binding | 92% |
| O=C(Cc1ccc(OCc2ccccc2)cc1)NC1(C(=O)O)CCN(C(=O)c2ccc(-c3cccc(Cl)c3)cc2)CC1 | enzyme activity | inhibitor |  | 10 µM |  | activity vs control | 100% |

Excerpt of the above:
| Compound | effect on | action | technique | concentration | baseline | quantity | result |
| --- | --- | --- | --- | --- | --- | --- | --- |
| COc1c(OCCCN2CCOCC2)ccc2c1N=C(NC(=O)c1cnc(N)nc1)N1CCN=C21 | kinase activity | inhibitor |  | 1 µM | untreated control | remaining activity | 101% |
